{"data": "Published values of several laboratories", "U2AF2": "U2AF2 148-342 (Homo sapiens, UniProt P26368)", "B1": "mortalin (human); sequence looked up; chain ASEAIKGAVVGIDLGTTNSCVAVMEGKQAKVLENAEGARTTPSVVAFTADGERLVGMPAKRQAVTNPNNTFYATKRLIGRRYDDPEVQKDIKNVPFKIVRASNGDAWVEAHGKLYSPSQIGAFVLMKMKETAENYLGHTAKNAVITVPAYFNDSQRQATKDAGQISGLNVLRVINEPTAAALAYGLDKSEDKVIAVYDLGGGTFDISILEIQKGVFEVKSTNGDTFLGGEDFDQALLRHIVKEFKRETGVDLTKDNMALQRVREAAEKAKCELSSSVQTDINLPYLTMDSSGPKHLNMKLTRAQFEGIVTDLIRRTIAPCQKAMQDAEVSKSDIGEVILVGGMTRMPKVQQTVQDLFGRAPSKAVNPDEAVAIGAAIQGGVLAGDVTDVLLLDVTPLSLGIETLGGVFTKLINRNTTIPTKKSQVFSTAADGQTQVEIKVCQGEREMAGDNKLLGQFTLIGIPPAPRGVPQIEVTFDIDANGIVHVSAKDKGTGREQQIVIQSSGGLSKDDIENMVKNAEKYAEEDRRKKERVEAVNMAEGIIHDTETKMEEFKDQLPADECNKLKEEISKMRELLARKDSETGENIRQAASSLQQASLKLFEMAYKKMASEREGSGSSGTGEQKEDQKEEKQ", "note": "Numbers after ± are the reported error.", "sequence of UniProt P26368 (whole entry, looked up)": "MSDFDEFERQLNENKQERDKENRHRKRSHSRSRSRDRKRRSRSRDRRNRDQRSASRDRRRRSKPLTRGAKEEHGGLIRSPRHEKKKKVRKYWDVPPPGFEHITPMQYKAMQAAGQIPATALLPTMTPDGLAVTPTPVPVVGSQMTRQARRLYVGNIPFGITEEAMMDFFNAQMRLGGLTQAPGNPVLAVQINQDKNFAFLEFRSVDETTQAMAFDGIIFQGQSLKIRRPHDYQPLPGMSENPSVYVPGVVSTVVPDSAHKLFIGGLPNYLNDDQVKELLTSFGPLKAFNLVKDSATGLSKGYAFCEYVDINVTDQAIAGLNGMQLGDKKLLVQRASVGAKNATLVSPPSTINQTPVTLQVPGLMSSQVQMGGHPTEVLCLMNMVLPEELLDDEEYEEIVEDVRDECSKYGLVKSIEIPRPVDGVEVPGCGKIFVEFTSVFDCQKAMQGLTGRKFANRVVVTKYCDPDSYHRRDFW"}
{"Molecule": "MTVCNASQRQAHAQATAVSL", "tested on": "HCC1171", "test": "phage binding", "test system": "peptide", "scale": "reference: targeting over control phage", "measurement": "selectivity ratio", "result": "0.47 ± 0.27"}
{"Molecule": "human TUBB2A", "tested on": "CYB5R4 knockout human cells", "test": "PP4 interaction, 3xFLAG-PP4C IP-MS", "conditions": "concentration not given", "scale": "reference: CYB5R4 KO over parental", "measurement": "log2 fold change", "result": -0.58}
{"Molecule": "Peginesatide", "tested on": "UT7/EPO", "test": "phosphorylation, agonist, measured: phospho-GSK-3β", "conditions": "10 min", "scale": "reference: rHuEPO maximum", "measurement": "Emax", "result": "96 ± 3%"}
{"Molecule": "colistin", "tested on": "Klebsiella pneumoniae", "test": "broth microdilution", "test system": "clinical isolate RKI-No_19/16", "measurement": "MIC", "result": "64 µg/mL"}
{"Molecule": "UUUUUAAAA (ssRNA)", "tested on": "U2AF2", "test": "sequencing of bound RNA", "test system": "RNA", "conditions": "motif only", "measurement": "Kd", "result": "3.23 µM"}
{"Molecule": "B1 (mortalin)", "tested on": "CYB5R4 knockout human cells", "test": "PP4 interaction, 3xFLAG-PP4C IP-MS", "conditions": "concentration not given", "scale": "reference: CYB5R4 KO over parental", "measurement": "log2 fold change", "result": 0.32}
{"Molecule": "RVEPIPLGF", "tested on": "Jurkat expressing engineered TCR", "test": "NFAT-eGFP reporter, fluorescence microscopy", "test system": "peptide", "conditions": "concentration not given, HLA-A*01:01 on EL4 cells", "measurement": "GFP-positive cells", "result": "0.533%"}
{"Molecule": "epoetin alfa", "tested on": "UT7/EPO", "test": "microarray, measured: BMP2 (probe 205290_s_at)", "conditions": "5 U/mL, 90 min, added: SCF 10 nM", "scale": "reference: vehicle", "measurement": "mRNA level", "result": "4 fold"}
{"Molecule": "ELDVIYLLY", "tested on": "Jurkat expressing engineered TCR", "test": "NFAT-eGFP reporter, fluorescence microscopy", "test system": "peptide", "conditions": "concentration not given, HLA-A*01:01 on EL4 cells", "measurement": "GFP-positive cells", "result": "0.683%"}
{"Molecule": "AUAUUGUUU (ssRNA)", "tested on": "U2AF2", "test": "sequencing of bound RNA", "test system": "RNA", "conditions": "motif only", "measurement": "Kd", "result": "2.15 µM"}
{"Molecule": "YLEPVYPEY", "tested on": "Jurkat expressing engineered TCR", "test": "NFAT-eGFP reporter, fluorescence microscopy", "test system": "peptide", "conditions": "concentration not given, HLA-A*01:01 on EL4 cells", "measurement": "GFP-positive cells", "result": "0.48%"}
{"Molecule": "human cathepsin D", "tested on": "CYB5R4 knockout human cells", "test": "PP4 interaction, 3xFLAG-PP4C IP-MS", "conditions": "concentration not given", "scale": "reference: CYB5R4 KO over parental", "measurement": "log2 fold change", "result": 0.26}
{"note": "Some of these lines once more:"}
{"Molecule": "MTVCNASQRQAHAQATAVSL", "tested on": "HCC1171", "test": "phage binding", "test system": "peptide", "scale": "reference: targeting over control phage", "measurement": "selectivity ratio", "result": "0.47 ± 0.27"}
